Experimental data pooled from the literature.
Lines come from different studies, so protocols differ. Values joined by “and” are separate records of one study, mostly repeats; a detail may differ. ± marks the error that the study gave.

Cc1ccc(O)c(/C=C2\SC(N3CCCCC3)=NC2=O)c1  EC50 (NG108-cl; clomeleon fluorescence, item: intracellular chloride reduction; 5 h): inactive
CCCCN1C[C@H](O)[C@@H](O)[C@@H](O)[C@H]1CO  IC50 (sample A patient fibroblasts; Gb3 level lowering, LC-MS/MS, item: Gb3 d18:1/16:0; 216 h): 9.8 µM
O=C(/C=C/C=C/C=C/C1CCCCC1)NC1=C[C@@](O)(/C=C/C=C/C=C/C(=O)NC2=C(O)CCC2=O)[C@@H]2O[C@@H]2C1=O  GI50 (SW480; cell growth, CellTiter-Glo; 78 h): 15.1 µM
O=C(Nc1nnc2n3c(Cc4ccccc4)n[nH]c3nc(-c3ccc(Cl)cc3)c1-2)c1ccccc1  cell growth (SR; SRB; 10 µM, NCI60 single-dose screen; baseline: untreated): 89.3%
Cn1cc(Nc2nccc(-c3ccc4c(c3)CN(C3COC3)CC[C@H]4NC(=O)c3cn(C(C)(C)C)nn3)n2)cn1  pathway activation z-score (mouse splenic B cells; item: TWEAK signalling; 30 mg/kg, IgD-activated in vivo; baseline: vehicle, direction not given): 2.53
COC(=O)COc1c(Cc2cc(C(C)(C)CC(C)(C)C)cc(-n3nc4ccccc4n3)c2OCC(=O)OC)cc(C(C)(C)CC(C)(C)C)cc1-n1nc2ccccc2n1  growth inhibition (Vero; MTT; 100 µM, 48 h): 10.5 ± 0.99%
Cn1c(Nc2nc3ccc(C(F)(F)F)cc3s2)nc2cc(C(=O)NCCOCCO)ccc21  fold change (SH-SY5Y; RNA-seq, item: ANKRD1 mRNA; 5 µM, 5 h; baseline: untreated cells): 3.5
Cc1nn(-c2nc3c(F)cc(F)cc3s2)c(O)c1C(c1ccc(C(F)(F)F)cc1)c1c(C)nn(-c2nc3c(F)cc(F)cc3s2)c1O  inhibition (RAW-ISG; IFN luciferase reporter; 5 µM, together with: HT-DNA): 73.3% and 73.2% and 72.5% and 75.9% and 74.8% and 75.6%
Cn1cc(C2=C(c3ccc(Cl)cc3Cl)C(=O)NC2=O)c2ccccc21  NeuN protein level (primary human cortical neurons; Western blot; 5 µM, 48 h, together with: HIV Tat and maraviroc 2.5 µM): increased
N#CC1=C(N)n2c(s/c(=C\c3cccs3)c2=O)=C(C#N)C1c1cccs1 (centres unmarked)  efficacy (LDR; silenced CMV-GFP reporter derepression, qHTS): 114%
CCCCS(=N)(=O)CCC(N)C(=O)O (centres unmarked)  cellular GSH concentration (OVCAR-5; LC-ESI-MS/MS, item: glutathione; 40 µM, 12 h): 31.7 ± 3.3 µM
CCc1cnc(N2CCC(c3nc(COc4ccc(-n5cnnn5)cc4)cs3)CC2)nc1  normalized enrichment score (HEK-293T; RNA-seq GSEA, item: HALLMARK_INTERFERON_GAMMA_RESPONSE; concentration not given; direction not given): -1.32
C=CC(=O)N1CCC[C@@H](n2nc(-c3ccc(Oc4ccccc4)cc3)c3c(N)ncnc32)C1  GI50 (RL; cell growth; 72 h): 18.4 µM
CCCCCCCCCCCCCCCC(NCc1cccc(C)c1)=C1C(=O)OC(CO)C1=O (centres unmarked)  G2/M phase cells (G2-synchronized tsFT210 cells; flow cytometry; 5 µM, 4 h, 32 °C, release from G2 arrest): 25.6%
Nc1ncnc2c1ncn2[C@@H]1O[C@H](CO)[C@@H](O)[C@H]1O  log2 fold change (activated human T cells; item: carbamoyl aspartate; 30 µM; baseline: DMSO): 7.1 and 7.6 and 8.1
C[C@]12CCCN1CC1=NNC(=O)c3cc(F)cc4[nH]c2c1c34  EC50 (HCT-8 colorectal cancer cells; cell viability; concentration not given, together with: with temozolomide): > 3 µM
COc1cc2ncnc(Nc3ccc(Oc4ccccc4)c(C)c3C)c2cc1OC.Cl  average fractional effect (MeWo (NF1); cell viability, resazurin; 0.1 µM, 72 h, together with: trametinib): 7%
c1ccc2[nH]ccc2c1  mRNA level, LS mean (HCT-8; RNA-seq, item: TSC22D3; concentration not given): 20.9 counts per million
Cc1cc(Nc2ncc(Cl)c(Nc3ccccc3S(=O)(=O)C(C)C)n2)c(OC(C)C)cc1C1CCNCC1  log2 fold change (CLB-GE; phosphoproteomics LC-MS/MS, item: SHC3 phosphorylation; 200 nM, 60 min; baseline: untreated): -3.49
Nc1ncnc2c1ncn2[C@@H]1O[C@H](COP(=O)(O)OP(=O)(O)OP(=O)(O)O)[C@@H](O)[C@H]1O  IL-1beta release (PMA-differentiated Pam3CSK4-primed THP-1 GSDMD knockout; inducer, ELISA; concentration not given): 331 pg/mL and 359 pg/mL and 232 pg/mL
Nc1cccc2c1CN(C1CCC(=O)NC1=O)C2=O (centres unmarked)  viability (bone marrow CD138+ myeloma cells; XTT; 1.6 µM, mean of three patients): 25%
COc1cc(C[C@H]2COC(=O)[C@@H]2Cc2ccc(O)c(OC)c2)ccc1O  PCNA level (neuroblastoma M2 (−); western blot; IC50; baseline: untreated): decreased
CN(c1ccccc1)S(=O)(=O)c1nnc(NC(=O)c2ccccc2)s1  efficacy (LDR; silenced CMV-GFP reporter derepression, qHTS): 188%
Cc1cccc(-c2[nH]c(CNc3ccccc3F)nc2-c2ccc3ncnn3c2)n1  viability (bone marrow CD138+ myeloma cells; XTT; 1.8 µM, phenol red-free RPMI): 7%
CC(C)NCC(O)c1ccc(O)c(O)c1 (centres unmarked)  sarcomere length (mouse ventricular cardiomyocytes; dose not given, 0.047 s): 1.8 µm
CCn1cc(-c2cc(Cn3ccnc3)cc3c2CCN([C@H](c2cc(OC)ccn2)C2CC2)C3=O)c(C(F)(F)F)n1  EC50 (HARA; cell growth; 120 h): 11.7 µM
Cn1cc(-c2ccc(-c3cncc(Cl)c3N3CCC4(CCNC4=O)CC3)cc2)cn1  log2 fold change (COLO 205; gene expression, microarray, item: LAMA3 mRNA; concentration not given, 6 h; baseline: untreated cells): 3.7
COc1ccc(C(=O)/C=C/Sc2nc3ccccc3o2)cc1  efficacy (LDR; silenced CMV-GFP reporter derepression, qHTS): 78%
Clc1nc(NCc2ccco2)c2[nH]cnc2n1  ΔPSI (iPSC-derived cardiomyocytes; RNA-seq, item: ANKRD10 chr13 exon ending 110900694; unit not given; baseline: DMSO minus compound): -0.213
Cc1nc(CSc2nsc(/C=C/N(C)C)c2C#N)cs1  efficacy (LDR; silenced CMV-GFP reporter derepression, qHTS): 129%
Cc1cc(NS(=O)(=O)c2ccc(NC(=O)/C(C#N)=C/c3ccc(N4CCCCC4)cc3)cc2)no1  G2/M phase cells (HCT-116; propidium iodide flow cytometry; IC50, 48 h): 3.4%
[Cl-].c1csc([I+]c2cccs2)c1  extracellular H2O2 production (Caco-2; 10 µM, 1 h; baseline: control): 12 ± 4%
CCOn1c(=O)c[n+]([O-])c2ccccc21  efficacy (LDR; silenced CMV-GFP reporter derepression, qHTS): 170%
COc1ccc2c(N(C)c3ccc(/C(C)=N/OCCN)cc3)c3c(Cl)coc3nc2c1  growth inhibition (LNCaP C-81, docetaxel-resistant; trypan blue exclusion; 1 µM, 72 h): 70 to 80%
O=S(=O)(NNc1nnc(Cl)c2ccccc12)c1ccc(F)cc1  cytotoxicity (Vero; MTT; 62.5 µg/mL): 11.8%
CC(=O)c1nn(-c2ccc(Cl)cc2)/c(=N/N=C(\C)c2ccc(NC(=O)c3ccc(C)cc3)cc2)s1  viability (HepG2; 5 µM): 3.13%
[Cl-].[Cl-].[Os+2].c1cnc2c(c1)ccc1cccnc12.c1cnc2c(c1)ccc1cccnc12.c1cnc2c(c1)ccc1cccnc12  GI50 (SK-MEL-28; sulforhodamine B; normoxia, together with: green light 523 nm): 18.1 µM
Oc1[nH]c2ccccc2c1N=NC(=S)N1CCOCC1  efficacy (LDR; silenced CMV-GFP reporter derepression, qHTS): 141%
CCCCc1nc(Cl)c(CO)n1Cc1ccc(-c2ccccc2-c2nn[nH]n2)cc1  log2 fold change (human PBMC; RNA-seq, item: CHST13 mRNA; 10 µg/mL, 24 h; baseline: untreated control): -3.77
Cc1nc(N(Cc2ccccc2)c2ccc3c(c2)/C(=C/c2ccccc2)C(=O)N3Cc2ccccc2)c2ccccc2n1 (mixture of isomers)  migration inhibition (LLC; Transwell; 2 µM, 24 h; baseline: untreated): 81%
COc1cnc2cccc(N3CCc4c(cc(Cn5ccnc5C)cc4-c4cn(C)nc4C(F)(F)F)C3=O)c2c1  EC50 (SW480; cell growth, inhibitor; 120 h): 19 µM
CCc1ccc(NC(=O)Nc2c[nH]c3ccccc23)cc1  mRNA level (RAW-ISG; RT-qPCR, item: IFNB1; 10 µM, unit not given, together with: poly(I:C); baseline: relative): 1.13
CCn1cc(-c2cc(Cn3ccoc3=N)cc3c2CCN([C@@H](C)c2cc(OC)ccn2)C3=O)c(C(F)(F)F)n1  EC50 (NCI-H1838; cell growth, inhibitor; 120 h): 4.76 µM
CC/C(=N\NC(=O)NCc1cccc(O)c1)c1ccc(O)c(C)c1O  log ratio (SK-OV-3; gene expression, microarray, item: DNAJC22; 10 µM, 24 h; baseline: DMSO): -3.06
CC(=O)Nc1cccc(-n2c(=O)n(C3CC3)c(=O)c3c(Nc4ccc(I)cc4F)n(C)c(=O)c(C)c32)c1  average fractional effect (MeWo (NF1); cell viability, resazurin; 6.25 nM, 72 h; baseline: DMSO): 30%
CSc1cc(Oc2ccnc3[nH]c(=O)cnc23)ccc1NC(=O)Nc1cc(C(C)(C)C)nn1-c1ccccc1  phospho-Met/total Met ratio (patient-derived cell line clone A; RPPA; 1 µM, 4 h; baseline: DMSO): 0.8
Cc1cnc2ccc3c(c2n1)N1CCC(O)N=C1N3C (centres unmarked)  colony number (BALB/c 3T3; colony forming efficiency; 1 µM): 86 colonies per plate
O=P1(C2CCCCC2)CCCCC1  IL-6 level (HaCaT; ELISA; IC50, 72 h): 12 ± 1.26 pg/mL
O=C(C[C@@H](C(F)F)n1ccc(F)n1)N1CCC(O)(Cn2cnc3c(cnn3-c3ccc(F)cc3)c2=O)CC1  viable cells (annexin V-/PI-) (CHP-212 parental (wild-type USP7); annexin V-PI flow cytometry; 0.3 µM, 48 h): 65.2% and 64.8% and 70.2%
C=CC1=C(C)c2cc3[n-]c(cc4nc(cc5[n-]c(cc1n2)c(C)c5C=C)C(C)=C4CCC(=O)O)c(CCC(=O)O)c3C.[Zn+2]  fold change (SH-SY5Y; RNA-seq, item: TGM2 mRNA; 5 µM, 5 h; baseline: untreated cells): 2

A few entries again:
COc1ccc2c(N(C)c3ccc(/C(C)=N/OCCN)cc3)c3c(Cl)coc3nc2c1  growth inhibition (LNCaP C-81, docetaxel-resistant; trypan blue exclusion; 1 µM, 72 h): 70 to 80%
O=S(=O)(NNc1nnc(Cl)c2ccccc12)c1ccc(F)cc1  cytotoxicity (Vero; MTT; 62.5 µg/mL): 11.8%
CC(=O)c1nn(-c2ccc(Cl)cc2)/c(=N/N=C(\C)c2ccc(NC(=O)c3ccc(C)cc3)cc2)s1  viability (HepG2; 5 µM): 3.13%
[Cl-].[Cl-].[Os+2].c1cnc2c(c1)ccc1cccnc12.c1cnc2c(c1)ccc1cccnc12.c1cnc2c(c1)ccc1cccnc12  GI50 (SK-MEL-28; sulforhodamine B; normoxia, together with: green light 523 nm): 18.1 µM
Oc1[nH]c2ccccc2c1N=NC(=S)N1CCOCC1  efficacy (LDR; silenced CMV-GFP reporter derepression, qHTS): 141%
